# Measured values collected from several papers.
# Compare with care: the assays were run in different laboratories.
SMILES,assay,system,setting,measurement,result
CN1CC[C@@H](c2c(O)cc(O)c3c(=O)cc(-c4ccc(C(F)(F)F)cc4Cl)oc23)[C@@H]1CO,refers to: Epistaxis,relapsed B-cell malignancies,"oral, 100 mg, grade 3-4, intermittent dosing",patients with adverse event,0%
CO[C@H]1C[C@@H]2CC[C@@H](C)[C@@](O)(O2)C(=O)C(=O)N2CCCC[C@H]2C(=O)O[C@H]([C@H](C)C[C@@H]2CC[C@@H](OC(=O)NCCOCCOCCOCCOCCOCCOCCOCCOCCC(=O)N3CCc4cc(Cn5nc(-c6ccc7oc(N)nc7c6)c6c(N)ncnc65)ccc4C3)[C@H](OC)C2)C[C@@H](O)[C@H](C)/C=C(\C)[C@@H](O)[C@@H](OC)C(=O)[C@H](C)C[C@H](C)/C=C/C=C/C=C/1C,refers to: grade ≥3 treatment-related mucositis,patients with advanced solid tumours,"intravenous, 8 to 12 mg, DM alone, weekly",patients with AE,15%
N[C@@H]1c2ccccc2OC12CCN(c1cnc3c(N4CCCc5ncccc54)n[nH]c3n1)CC2,,advanced solid tumour patients,"oral, 10 mg once daily",patients with any TEAE,100%
O=C1Nc2cc3[nH]nc(-c4ccncc4)c3cc2CN1Cc1ccccc1,CTCAE v4.03,advanced solid tumour patients,"intravenous, 0.9 mg/kg, schedules 1/2",patients with back pain,0%
CCN(CCO)CCCC(C)Nc1ccnc2cc(Cl)ccc12 (centres unmarked),refers to: Diarrhea grade 1,newly diagnosed glioblastoma patients,"oral, 800 mg/dose, with radiotherapy and temozolomide",patients with adverse event,66%
CC(=O)c1c(C)c2cnc(Nc3ccc(C4CCN(CCS(C)(=O)=O)CC4)cn3)nc2n(C2CCCC2)c1=O,,HR+/HER2- advanced breast cancer patients,"oral, dose not given, grade 3/4,, sample A patients",patients with hypertriglyceridemia,2.5%
COc1c(OCCCN2CCOCC2)ccc2c1N=C(NC(=O)c1cnc(N)nc1)N1CCN=C21,refers to: Fever,patients with advanced malignancies,"intravenous, dose not given, any grade, all cohorts, with: gemcitabine",patients with adverse event,26%
C[C@@H]1OC(=O)NN=C1c1ccc(-c2ccc(F)cc2)c(C(F)(F)F)c1,,"patients, phase I trial","oral, 5 mg once daily, any grade TEAE",patients with non-cardiac chest pain,0%
C=CCNc1c(O)cc2c(O)c1C[C@@H](C)C[C@H](OC)[C@H](O)[C@@H](C)/C=C(\C)[C@H](OC(N)=O)[C@@H](OC)/C=C\C=C(/C)C(=O)N2,,"unresectable or metastatic STS, GIST, other","intravenous, 225 mg/m^2",patients with constipation TEAE,33%
Cc1cc(OCCOCCC(F)(F)P(=O)(O)O)ccc1CCc1cnc2c(N)nc3cc(CCC(=O)O)ccc3c2c1,refers to: pyrexia,adults with advanced solid tumours,"dose not given, all groups pooled, all grades",patients with non-serious AE,37.8%
Nc1nc2cc(-c3ccc4ncc(C(=O)N5CCOCC5)n4c3)ccc2o1,"refers to: Constipation, any cause, all grades",patients with advanced solid tumours,dose not given,patients with adverse events,33%

# A few entries again:
SMILES,assay,system,setting,measurement,result
Nc1nc2cc(-c3ccc4ncc(C(=O)N5CCOCC5)n4c3)ccc2o1,"refers to: Constipation, any cause, all grades",patients with advanced solid tumours,dose not given,patients with adverse events,33%
Cc1cc(OCCOCCC(F)(F)P(=O)(O)O)ccc1CCc1cnc2c(N)nc3cc(CCC(=O)O)ccc3c2c1,refers to: pyrexia,adults with advanced solid tumours,"dose not given, all groups pooled, all grades",patients with non-serious AE,37.8%
